Published values collected from several papers.
A part holds a random share of what one study measured. “And” joins repeats or separate records; there may be more than shown.
Chain of UniProt P35916 (whole entry, looked up): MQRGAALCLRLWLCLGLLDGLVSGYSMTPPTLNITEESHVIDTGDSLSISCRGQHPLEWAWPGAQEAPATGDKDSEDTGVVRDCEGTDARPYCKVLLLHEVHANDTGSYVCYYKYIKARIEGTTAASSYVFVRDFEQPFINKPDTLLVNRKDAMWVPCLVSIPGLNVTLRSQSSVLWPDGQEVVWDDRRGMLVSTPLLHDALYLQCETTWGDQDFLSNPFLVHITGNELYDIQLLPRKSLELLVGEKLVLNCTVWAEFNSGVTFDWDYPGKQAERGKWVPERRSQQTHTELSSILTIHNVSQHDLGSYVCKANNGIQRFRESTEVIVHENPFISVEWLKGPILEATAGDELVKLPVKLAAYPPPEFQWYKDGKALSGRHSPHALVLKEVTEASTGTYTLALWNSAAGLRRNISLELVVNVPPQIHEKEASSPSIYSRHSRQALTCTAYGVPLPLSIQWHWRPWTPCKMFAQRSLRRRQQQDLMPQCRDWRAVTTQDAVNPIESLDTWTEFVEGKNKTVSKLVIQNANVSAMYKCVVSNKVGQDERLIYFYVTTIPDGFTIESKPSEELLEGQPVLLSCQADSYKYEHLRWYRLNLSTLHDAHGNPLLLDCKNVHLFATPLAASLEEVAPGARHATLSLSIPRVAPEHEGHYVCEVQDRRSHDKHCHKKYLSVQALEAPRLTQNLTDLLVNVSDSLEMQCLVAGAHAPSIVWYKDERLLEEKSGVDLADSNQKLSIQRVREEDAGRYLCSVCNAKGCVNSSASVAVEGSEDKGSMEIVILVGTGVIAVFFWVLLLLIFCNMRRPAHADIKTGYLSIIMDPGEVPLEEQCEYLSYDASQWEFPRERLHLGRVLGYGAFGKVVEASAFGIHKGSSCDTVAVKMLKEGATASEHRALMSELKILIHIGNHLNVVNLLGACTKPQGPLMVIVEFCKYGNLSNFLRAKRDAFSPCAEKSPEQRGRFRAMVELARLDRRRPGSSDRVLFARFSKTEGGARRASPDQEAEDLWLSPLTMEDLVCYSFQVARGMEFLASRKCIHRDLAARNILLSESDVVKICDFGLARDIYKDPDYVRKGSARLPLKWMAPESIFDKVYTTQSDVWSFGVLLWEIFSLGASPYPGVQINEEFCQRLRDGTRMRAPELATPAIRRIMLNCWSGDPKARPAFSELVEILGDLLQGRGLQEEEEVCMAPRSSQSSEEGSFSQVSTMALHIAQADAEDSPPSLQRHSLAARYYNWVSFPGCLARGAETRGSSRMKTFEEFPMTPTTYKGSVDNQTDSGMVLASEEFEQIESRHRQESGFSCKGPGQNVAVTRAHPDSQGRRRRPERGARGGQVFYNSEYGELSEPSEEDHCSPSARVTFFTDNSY
Chain of UniProt Q13555 (whole entry, looked up): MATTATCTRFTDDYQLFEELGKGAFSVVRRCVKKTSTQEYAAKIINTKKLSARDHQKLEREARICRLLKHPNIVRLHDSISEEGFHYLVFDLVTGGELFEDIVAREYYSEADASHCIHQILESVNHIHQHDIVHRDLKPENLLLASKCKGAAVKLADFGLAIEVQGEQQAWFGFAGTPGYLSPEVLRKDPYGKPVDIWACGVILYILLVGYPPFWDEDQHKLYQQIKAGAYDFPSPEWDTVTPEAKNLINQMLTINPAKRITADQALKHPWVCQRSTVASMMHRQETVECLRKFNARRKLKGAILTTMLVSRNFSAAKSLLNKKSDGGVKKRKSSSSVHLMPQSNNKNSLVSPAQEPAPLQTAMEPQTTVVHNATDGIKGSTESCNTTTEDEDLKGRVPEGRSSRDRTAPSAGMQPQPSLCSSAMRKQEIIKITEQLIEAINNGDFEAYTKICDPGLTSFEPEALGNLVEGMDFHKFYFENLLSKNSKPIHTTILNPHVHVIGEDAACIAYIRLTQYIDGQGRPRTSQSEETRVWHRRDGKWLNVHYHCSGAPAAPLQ
Chain of UniProt P42684 (whole entry, looked up): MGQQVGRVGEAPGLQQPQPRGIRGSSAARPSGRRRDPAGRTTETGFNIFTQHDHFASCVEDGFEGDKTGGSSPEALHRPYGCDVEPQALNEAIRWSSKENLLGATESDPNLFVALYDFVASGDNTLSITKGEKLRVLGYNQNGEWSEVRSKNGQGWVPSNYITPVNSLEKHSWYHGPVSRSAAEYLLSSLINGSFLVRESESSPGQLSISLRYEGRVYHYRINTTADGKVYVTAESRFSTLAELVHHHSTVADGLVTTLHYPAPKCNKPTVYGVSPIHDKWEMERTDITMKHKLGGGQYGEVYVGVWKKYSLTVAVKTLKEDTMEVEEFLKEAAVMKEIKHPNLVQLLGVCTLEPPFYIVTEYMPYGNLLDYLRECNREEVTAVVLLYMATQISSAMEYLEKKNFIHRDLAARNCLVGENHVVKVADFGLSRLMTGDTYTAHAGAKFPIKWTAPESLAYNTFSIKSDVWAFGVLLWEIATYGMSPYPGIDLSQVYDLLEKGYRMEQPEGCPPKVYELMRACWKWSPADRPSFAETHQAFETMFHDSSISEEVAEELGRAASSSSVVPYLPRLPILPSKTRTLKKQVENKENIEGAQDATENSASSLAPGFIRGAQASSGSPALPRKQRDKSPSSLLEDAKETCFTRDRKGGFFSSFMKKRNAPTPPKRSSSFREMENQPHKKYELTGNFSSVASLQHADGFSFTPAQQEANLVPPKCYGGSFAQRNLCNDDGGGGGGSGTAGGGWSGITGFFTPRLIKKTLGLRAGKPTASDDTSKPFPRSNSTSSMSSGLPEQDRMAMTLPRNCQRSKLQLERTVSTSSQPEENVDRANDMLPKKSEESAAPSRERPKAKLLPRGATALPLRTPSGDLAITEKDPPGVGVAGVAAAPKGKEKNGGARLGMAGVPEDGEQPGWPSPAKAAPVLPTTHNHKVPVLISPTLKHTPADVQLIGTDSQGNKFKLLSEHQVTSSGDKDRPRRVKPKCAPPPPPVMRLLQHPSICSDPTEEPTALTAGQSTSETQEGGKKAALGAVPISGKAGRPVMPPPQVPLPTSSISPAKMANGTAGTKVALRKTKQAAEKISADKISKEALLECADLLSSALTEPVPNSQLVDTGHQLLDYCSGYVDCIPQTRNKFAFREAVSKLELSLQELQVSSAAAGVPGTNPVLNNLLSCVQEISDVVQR

Block 1
SMILES: CNc1ncc2cc(-c3cc(OC)cc(OC)c3Cl)c(=O)n(CCc3ccc(NC(=O)C(C#N)=CC(C)(C)N4CCOCC4)cc3)c2n1
Effect on: kinase activity
| target | concentration | inhibition |
| --- | --- | --- |
| ABL2 (Homo sapiens, UniProt P42684) | 1 µM | 6% |
| SRC (Homo sapiens, UniProt P12931) | 0.1 µM | 5% |
| FLT4 (Homo sapiens, UniProt P35916) | 1 µM | > 90% and 91% |
| CAMK2G (Homo sapiens, UniProt Q13555) | 0.1 µM | -1% |
| RIPK2 (Homo sapiens, UniProt O43353) | 0.1 µM | -2% |
| SGK1 (Homo sapiens, UniProt O00141) | 1 µM | 6% |
| CAMK1 (Homo sapiens, UniProt Q14012) | 1 µM | 2% |
| LRRK2 (Homo sapiens, UniProt Q5S007, G2019S) | 1 µM | -5% |

Block 2
SMILES: Cn1cc(-c2cccc(CN3CCC4(CC3)COc3c4ccc4c3CN([C@@H]3CCC(=O)NC3=O)C4=O)c2)cn1
Action: degrader
Method: HiBiT
Cells: HEK293
CSNK1A1: Casein kinase I isoform alpha (CSNK1A1, Homo sapiens, UniProt P48729)
Chain of UniProt P48729 (whole entry, looked up): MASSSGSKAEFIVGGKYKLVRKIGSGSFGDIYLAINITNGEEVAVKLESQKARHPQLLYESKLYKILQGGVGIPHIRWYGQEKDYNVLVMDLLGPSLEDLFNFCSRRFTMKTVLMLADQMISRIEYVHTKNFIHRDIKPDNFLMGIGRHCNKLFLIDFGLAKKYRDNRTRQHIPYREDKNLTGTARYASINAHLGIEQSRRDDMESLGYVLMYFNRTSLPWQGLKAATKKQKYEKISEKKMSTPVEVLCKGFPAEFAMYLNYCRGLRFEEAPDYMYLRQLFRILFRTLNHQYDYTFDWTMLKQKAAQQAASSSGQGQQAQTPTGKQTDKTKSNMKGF
Zinc finger protein Aiolos: Zinc finger protein Aiolos (Homo sapiens, UniProt Q9UKT9)
Chain of UniProt Q9UKT9 (whole entry, looked up): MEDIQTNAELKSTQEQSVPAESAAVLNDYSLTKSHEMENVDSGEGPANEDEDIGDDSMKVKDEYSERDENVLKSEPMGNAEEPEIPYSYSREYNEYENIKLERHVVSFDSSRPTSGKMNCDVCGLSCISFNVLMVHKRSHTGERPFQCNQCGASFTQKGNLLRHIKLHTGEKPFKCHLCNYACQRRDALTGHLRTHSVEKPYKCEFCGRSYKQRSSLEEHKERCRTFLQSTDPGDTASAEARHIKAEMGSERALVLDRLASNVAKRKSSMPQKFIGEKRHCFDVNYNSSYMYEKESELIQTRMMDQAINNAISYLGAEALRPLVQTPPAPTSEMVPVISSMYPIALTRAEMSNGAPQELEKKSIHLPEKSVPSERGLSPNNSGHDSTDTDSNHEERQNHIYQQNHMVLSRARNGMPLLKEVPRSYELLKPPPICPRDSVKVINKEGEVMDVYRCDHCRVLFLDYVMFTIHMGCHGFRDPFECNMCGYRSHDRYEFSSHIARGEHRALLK
DNA-binding protein Ikaros: DNA-binding protein Ikaros (Homo sapiens, UniProt Q13422)
Chain of UniProt Q13422 (whole entry, looked up): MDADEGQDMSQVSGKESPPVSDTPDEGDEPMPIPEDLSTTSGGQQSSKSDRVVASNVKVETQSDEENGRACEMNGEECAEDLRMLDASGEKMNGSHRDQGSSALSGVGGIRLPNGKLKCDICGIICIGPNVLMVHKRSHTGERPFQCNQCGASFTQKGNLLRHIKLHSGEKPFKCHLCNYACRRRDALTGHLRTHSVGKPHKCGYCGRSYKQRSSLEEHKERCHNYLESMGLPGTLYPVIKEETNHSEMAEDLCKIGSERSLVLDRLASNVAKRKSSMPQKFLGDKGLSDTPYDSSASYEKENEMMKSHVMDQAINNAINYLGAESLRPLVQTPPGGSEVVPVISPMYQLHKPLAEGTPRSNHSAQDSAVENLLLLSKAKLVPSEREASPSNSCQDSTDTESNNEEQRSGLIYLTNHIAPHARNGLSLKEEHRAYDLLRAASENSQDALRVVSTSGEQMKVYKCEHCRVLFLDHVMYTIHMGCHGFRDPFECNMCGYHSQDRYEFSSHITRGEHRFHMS
GSPT1: Eukaryotic peptide chain release factor GTP-binding subunit ERF3A (GSPT1, Homo sapiens, UniProt P15170)
Chain of UniProt P15170 (whole entry, looked up): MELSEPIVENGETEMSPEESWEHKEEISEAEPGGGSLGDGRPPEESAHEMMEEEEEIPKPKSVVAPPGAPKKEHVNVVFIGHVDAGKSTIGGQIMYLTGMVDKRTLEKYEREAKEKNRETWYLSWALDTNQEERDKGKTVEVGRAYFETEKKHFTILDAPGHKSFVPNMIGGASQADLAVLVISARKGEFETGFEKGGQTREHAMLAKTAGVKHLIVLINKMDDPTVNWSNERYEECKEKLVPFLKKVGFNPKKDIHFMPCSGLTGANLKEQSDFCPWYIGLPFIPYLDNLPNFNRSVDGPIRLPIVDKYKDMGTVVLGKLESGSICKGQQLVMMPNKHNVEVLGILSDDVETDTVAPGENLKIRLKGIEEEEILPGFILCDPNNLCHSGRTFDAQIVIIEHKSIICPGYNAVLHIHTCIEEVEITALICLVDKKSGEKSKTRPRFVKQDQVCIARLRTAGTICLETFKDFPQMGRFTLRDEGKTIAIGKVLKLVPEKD
| target | concentration | remaining protein |
| --- | --- | --- |
| CSNK1A1 | 0.5081 nM | 104% and 105% |
| CSNK1A1 | 1.524 nM | 97% and 93.1% |
| Zinc finger protein Aiolos | 3333.33 nM | 98.3% and 91.1% |
| Zinc finger protein Aiolos | 370.37 nM | 95.4% and 103% |
| DNA-binding protein Ikaros | 1111.11 nM | 95.6% and 92.9% |
| Zinc finger protein Aiolos | 0.5081 nM | 102% |
| CSNK1A1 | 4.572 nM | 103% and 99.5% |
| GSPT1 | 3333.33 nM | 102% and 87% |
| DNA-binding protein Ikaros | 10000 nM | 96.5% and 93.8% |
| CSNK1A1 | 3333.33 nM | 97.8% and 98.6% |
| GSPT1 | 10000 nM | 87.7% and 101% |
| DNA-binding protein Ikaros | 370.37 nM | 98% |
| Zinc finger protein Aiolos | 13.72 nM | 100% and 99.8% |

Block 3
SMILES: CC(C)C[C@@H]1NC(=O)[C@@H](N(C)C(=O)[C@@H](NC(=O)[C@@H]2C[C@@H](F)CN2C(=O)C2(C(F)(F)F)CC(F)(F)C2)C2CC2)CCCCCCCN(C)C(=O)[C@H](Cc2cc(Cl)cnc2OC2CC2)N(C)C1=O
Route: oral
| species | dose | time | tumour volume |
| --- | --- | --- | --- |
| NSG mice, sample B SCLC PDX | 100 mg/kg twice daily | day 12 | 295 mm3 and 194 mm3 and 204 mm3 and 214 mm3 and 288 mm3 |
| NSG mice, sample B SCLC PDX | 100 mg/kg twice daily | day 5 | 241 mm3 and 214 mm3 and 253 mm3 and 182 mm3 and 183 mm3 |
| mouse, sample A SCLC PDX | 100 mg/kg three times daily | day 7 | 130 mm3 and 148 mm3 and 193 mm3 and 144 mm3 |
| mouse, sample A SCLC PDX | 100 mg/kg three times daily | day 0 | 144 mm3 and 190 mm3 and 174 mm3 and 240 mm3 |
| NSG mice, sample B SCLC PDX | 100 mg/kg twice daily | day 26 | 348 mm3 and 308 mm3 and 223 mm3 and 395 mm3 and 282 mm3 |
| mouse, sample A SCLC PDX | 100 mg/kg three times daily | day 18 | 291 mm3 and 162 mm3 and 160 mm3 and 150 mm3 |

Mixed results
| Structure (SMILES) | organism | effect on | dose | notes | quantity | value |
| --- | --- | --- | --- | --- | --- | --- |
| C=CCN1C(=O)C(O)(C(=O)O)Oc2cc(F)ccc21 (stereo not shown) | Alopecurus aequalis | fresh weight | 150 g ai/ha | pre-emergence treatment | inhibition | 7.4% and 9.1% and 9.6% |
